Experimental data pooled from the literature.
Each numbered part is a random draw from the data of one study; scales do not carry over between parts.

Series 1 — technique: universal PBM; form: double-stranded DNA, one strand shown; medium: in vitro; concentration: not given; reading: higher = stronger binding
Target: Sal-like protein 4, full length isoform B (SALL4, Homo sapiens, UniProt Q9UJQ4-2, residues 1-616)
Setting: 8-mer, flanks averaged, mean of replicates
Target sequence (chain): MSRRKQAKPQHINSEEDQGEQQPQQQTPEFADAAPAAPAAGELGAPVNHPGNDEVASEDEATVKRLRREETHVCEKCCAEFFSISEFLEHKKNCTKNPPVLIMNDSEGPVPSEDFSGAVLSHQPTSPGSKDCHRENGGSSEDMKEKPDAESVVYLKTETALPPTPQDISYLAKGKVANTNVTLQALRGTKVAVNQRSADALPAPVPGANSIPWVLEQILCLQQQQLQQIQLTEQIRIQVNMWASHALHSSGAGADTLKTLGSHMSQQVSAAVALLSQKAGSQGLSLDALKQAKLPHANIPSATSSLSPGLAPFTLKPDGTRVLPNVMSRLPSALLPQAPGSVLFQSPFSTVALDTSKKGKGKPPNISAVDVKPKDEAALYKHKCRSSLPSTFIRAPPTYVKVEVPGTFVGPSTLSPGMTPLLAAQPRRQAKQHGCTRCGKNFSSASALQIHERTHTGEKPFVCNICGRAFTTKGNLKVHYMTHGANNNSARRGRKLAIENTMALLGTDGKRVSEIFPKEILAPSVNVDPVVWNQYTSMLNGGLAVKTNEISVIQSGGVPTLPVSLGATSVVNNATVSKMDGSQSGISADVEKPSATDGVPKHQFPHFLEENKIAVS
Oligonucleotide	E-score
AGTGAATG	0.119
CCCAAGAG	-0.172
AGGACCCG	-0.4
TGCACTAA	0.187
CCACATGG	-0.169
ACCGAAGA	0.0591

Series 2 — technique: protein-binding microarray; form: double-stranded DNA, one strand shown; medium: in vitro; concentration: 2200 nM top; setting: 60-bp whole probe; together with: salmon DNA 0.4 mg/ml; reference: random background probes; reading: higher = stronger binding; shared flanks, not repeated: GCCTAGCAC … GTCTTGATTCGCTTGACGCTGCTG
Target: Interferon regulatory factor 7, full length, phosphomimetic (IRF7, Homo sapiens, UniProt Q92985, residues 1-503, S471D/S472D/S475D/S476D/S477D/S483D/S484D/S487D)
Chain of UniProt Q92985 (whole entry, unmodified, looked up): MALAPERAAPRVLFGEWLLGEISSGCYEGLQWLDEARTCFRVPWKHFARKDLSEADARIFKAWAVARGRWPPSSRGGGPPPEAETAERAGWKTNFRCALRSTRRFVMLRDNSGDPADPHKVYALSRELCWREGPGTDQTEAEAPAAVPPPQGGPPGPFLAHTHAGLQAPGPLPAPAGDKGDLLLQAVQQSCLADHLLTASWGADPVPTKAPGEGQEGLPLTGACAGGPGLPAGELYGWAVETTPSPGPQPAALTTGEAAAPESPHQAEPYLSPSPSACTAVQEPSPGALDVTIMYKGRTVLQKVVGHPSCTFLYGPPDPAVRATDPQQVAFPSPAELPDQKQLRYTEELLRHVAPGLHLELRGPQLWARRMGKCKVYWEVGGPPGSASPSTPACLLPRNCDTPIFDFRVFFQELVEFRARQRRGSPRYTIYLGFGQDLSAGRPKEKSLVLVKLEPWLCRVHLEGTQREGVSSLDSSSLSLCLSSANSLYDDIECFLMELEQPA
Oligonucleotide	fitted relative affinity [z-score]
GACGGTTTCGGGTTTCGGGATGTGCTA	9.92
TTAGGGATCGGGTATCGGTTAGTGCTA	-0.278
GACGGTTACGGACTGGGGACGTGCTAG	-0.525
TACGATATCGGGACTGGAGACGTGCTA	0.233
GACGAACTTAGTATCGAGACGTGCTAG	-0.0835

Series 3 — technique: protein binding microarray; form: double-stranded DNA, one strand shown; medium: in vitro; concentration: not given; reference: not given; reading: higher = stronger binding
Target: Histone acetyltransferase KAT6A, winged helix 2, GST fusion (KAT6A, Homo sapiens, UniProt Q92794, residues 85-181)
Setting: 8-mer, flanks averaged, mean of 2 arrays, mostly near background
Construct (chain): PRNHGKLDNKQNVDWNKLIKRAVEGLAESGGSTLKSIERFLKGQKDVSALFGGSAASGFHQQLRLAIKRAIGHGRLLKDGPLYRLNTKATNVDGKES
Oligonucleotide	E-score
GACTAACA	-0.0801
CGCCACAG	0.107
CGAAGACA	-0.0307
AAATAATC	0.0771
GATAATTA	0.0626

Other studies, line by line
Substance	target	test	system	conditions	scale	endpoint	value
PhoQ, residues 284 288 289 292 302 303 DDMDFR	PhoP, residues 12 14 15 18 19 NQGLL (Escherichia coli, UniProt P23836)	Sort-seq, measured: YFP reporter	E. coli	PhoQ-PhoP variant library, together with: 10 µM Mg2+	reference: high Mg2+ state, higher = stronger signaling	fold induction	1.04

Excerpt of the above (series 2):
Oligonucleotide	fitted relative affinity [z-score]
TTAGGGATCGGGTATCGGTTAGTGCTA	-0.278
GACGGTTACGGACTGGGGACGTGCTAG	-0.525
